# Published values gathered from unrelated publications.
# Lines come from different studies, so protocols differ. ± marks the error that the study gave.
SMILES,system,conditions,how to read,measurement,value
CCCC[C@H](NC(=O)COCCOCCNC(=O)c1ccc(NN)nc1)C(=O)N[C@H]1CC(=O)NCCCC[C@@H](C(N)=O)NC(=O)[C@H](Cc2c[nH]c3ccccc23)NC(=O)[C@H](CCCNC(=N)N)NC(=O)[C@@H](Cc2ccccc2)NC(=O)[C@H](Cc2c[nH]cn2)NC1=O [technetium-99m labelled],"C57 mouse, female, B16/F1 melanoma, urine","intravenous, 0.037 MBq, 2 h",,excreted dose,93.2 ± 1.91%
N=C(N)NCCC[C@@H]1NC(=O)[C@H](CCCCNC(=O)CCOCCOCCOCCOCCNC(=O)CC[C@H](NC(=O)CCOCCOCCOCCOCCNC(=O)CC[C@H](NC(=O)CN2CCN(CC(=O)O)CCN(CC(=O)O)CCN(CC(=O)O)CC2)C(=O)NCCOCCOCCOCCOCCC(=O)N[C@@H](CCC(=O)NCCOCCOCCOCCOCCC(=O)NCCCC[C@@H]2NC(=O)[C@@H](Cc3ccccc3)NC(=O)[C@H](CC(=O)O)NC(=O)CNC(=O)[C@H](CCCNC(=N)N)NC2=O)C(=O)NCCOCCOCCOCCOCCC(=O)NCCCC[C@@H]2NC(=O)[C@@H](Cc3ccccc3)NC(=O)[C@H](CC(=O)O)NC(=O)CNC(=O)[C@H](CCCNC(=N)N)NC2=O)C(=O)NCCOCCOCCOCCOCCC(=O)NCCCC[C@@H]2NC(=O)[C@@H](Cc3ccccc3)NC(=O)[C@H](CC(=O)O)NC(=O)CNC(=O)[C@H](CCCNC(=N)N)NC2=O)NC(=O)[C@@H](Cc2ccccc2)NC(=O)[C@H](CC(=O)O)NC(=O)CNC1=O [indium-111 labelled],"athymic nude mice, female, U-87 MG glioma xenograft, tumour and blood","intravenous, 0.5 h",relative to: tumour over blood,tumour to tissue ratio,11.3 ± 1.71
N=C(N)NCCC[C@@H]1NC(=O)[C@H](CCCCNC(=O)CCOCCOCCOCCOCCNC(=O)CC[C@H](NC(=O)CCOCCOCCOCCOCCNC(=O)[C@H](CCCCNC(=O)c2ccc(NN)nc2)NC(=O)c2ccc(NN)nc2)C(=O)NCCOCCOCCOCCOCCC(=O)NCCCC[C@@H]2NC(=O)[C@@H](Cc3ccccc3)NC(=O)[C@H](CC(=O)O)NC(=O)CNC(=O)[C@H](CCCNC(=N)N)NC2=O)NC(=O)[C@@H](Cc2ccccc2)NC(=O)[C@H](CC(=O)O)NC(=O)CNC1=O [technetium-99m labelled],female athymic nude mice,"intravenous, 1 h, U-87 MG glioma xenograft",relative to: tumour over muscle,tissue ratio,10.8 ± 1.92
N=C(N)NCCC[C@@H]1NC(=O)[C@H](CCCCNC(=O)CNC(=O)CNC(=O)CNC(=O)CC[C@H](NC(=O)CCOCCOCCOCCOCCNC(=O)CC[C@H](NC(=O)CN2CCN(CC(=O)O)CCN(CC(=O)O)CCN(CC(=O)O)CC2)C(=O)NCCOCCOCCOCCOCCC(=O)N[C@@H](CCC(=O)NCC(=O)NCC(=O)NCC(=O)NCCCC[C@@H]2NC(=O)[C@@H](Cc3ccccc3)NC(=O)[C@H](CC(=O)O)NC(=O)CNC(=O)[C@H](CCCNC(=N)N)NC2=O)C(=O)NCC(=O)NCC(=O)NCC(=O)NCCCC[C@@H]2NC(=O)[C@@H](Cc3ccccc3)NC(=O)[C@H](CC(=O)O)NC(=O)CNC(=O)[C@H](CCCNC(=N)N)NC2=O)C(=O)NCC(=O)NCC(=O)NCC(=O)NCCCC[C@@H]2NC(=O)[C@@H](Cc3ccccc3)NC(=O)[C@H](CC(=O)O)NC(=O)CNC(=O)[C@H](CCCNC(=N)N)NC2=O)NC(=O)[C@@H](Cc2ccccc2)NC(=O)[C@H](CC(=O)O)NC(=O)CNC1=O [indium-111 labelled],female athymic nude mouse,"intravenous, 72 h, U-87 MG glioma xenograft",relative to: tumour over bone,tumour to bone ratio,6.76 ± 2.74
CSCC[C@H](NC(=O)[C@H](CC(C)C)NC(=O)[C@H](Cc1c[nH]cn1)NC(=O)CNC(=O)[C@@H](NC(=O)[C@H](C)NC(=O)[C@H](Cc1c[nH]c2ccccc12)NC(=O)[C@H](CCC(N)=O)NC(=O)CCCCCNC(=O)CNC(=O)CNC(=O)CNC(=O)CSC(C)=O)C(C)C)C(N)=O [technetium-99m labelled],"Swiss mouse, blood","intravenous, 18.5 MBq, 240 min",,tissue uptake,0.05 ± 0.01 %ID/g
N=C(N)NCCC[C@@H]1NC(=O)[C@H](CCCCNC(=O)CC[C@H](NC(=O)CCOCCOCCOCCOCCNC(=O)CC[C@H](NC(=O)CN2CCN(CC(=O)O)CCN(CC(=O)O)CCN(CC(=O)O)CC2)C(=O)NCCOCCOCCOCCOCCC(=O)N[C@@H](CCC(=O)NCCCC[C@@H]2NC(=O)[C@@H](Cc3ccccc3)NC(=O)[C@H](CC(=O)O)NC(=O)CNC(=O)[C@H](CCCNC(=N)N)NC2=O)C(=O)NCCCC[C@@H]2NC(=O)[C@@H](Cc3ccccc3)NC(=O)[C@H](CC(=O)O)NC(=O)CNC(=O)[C@H](CCCNC(=N)N)NC2=O)C(=O)NCCCC[C@@H]2NC(=O)[C@@H](Cc3ccccc3)NC(=O)[C@H](CC(=O)O)NC(=O)CNC(=O)[C@H](CCCNC(=N)N)NC2=O)NC(=O)[C@@H](Cc2ccccc2)NC(=O)[C@H](CC(=O)O)NC(=O)CNC1=O [indium-111 labelled],"female athymic nude mice, eyes","intravenous, 3 µCi, 1 h, U-87 MG glioma xenograft",,tissue uptake,1.1 ± 0.22 %ID/g
CCCC[C@H](NC(=O)CNC(=O)CNC(=O)c1ccc(NN)nc1)C(=O)N[C@H]1CC(=O)NCCCC[C@@H](C(N)=O)NC(=O)[C@H](Cc2c[nH]c3ccccc23)NC(=O)[C@H](CCCNC(=N)N)NC(=O)[C@@H](Cc2ccccc2)NC(=O)[C@H](Cc2c[nH]cn2)NC1=O [technetium-99m labelled],"C57 mouse, B16/F1 melanoma, skin","2 h, added: L-lysine 12 mg",,uptake,0.23 ± 0.03 %ID/g
N=C(N)NCCC[C@@H]1NC(=O)[C@H](CCCCNC(=O)CNC(=O)CNC(=O)CNC(=O)c2ccc(NN=Cc3ccccc3S(=O)(=O)O)nc2)NC(=O)[C@@H](Cc2ccccc2)NC(=O)[C@H](CC(=O)O)NC(=O)CNC1=O [technetium-99m labelled],"athymic nu/nu mouse, female, U-87 MG glioma xenograft","intravenous, 120 min",relative to: tumour over blood,tumour to tissue ratio,13.1 ± 3.84
N=C(N)NCCC[C@@H]1NC(=O)[C@H](CCCCNC(=O)CCOCCOCCOCCOCCNC(=O)CN2CCN(CC(=O)O)CCN(CC(=O)O)CCN(CC(=O)O)CC2)NC(=O)[C@@H](Cc2ccccc2)NC(=O)[C@H](CC(=O)O)NC(=O)CNC1=O [indium-111 labelled],"athymic nude mice, female, U-87 MG glioma xenograft, tumour and muscle","intravenous, 1 h",relative to: tumour over muscle,tumour to tissue ratio,6.89 ± 1.55
C[C@@H](O)[C@H](NC(=O)[C@@H]1CSSC[C@H](NC(=O)[C@@H](Cc2ccccc2)NC(=O)CN2CCCN3CCN(CCCN(CP(=O)(O)O)CC3)CC2)C(=O)N[C@@H](Cc2ccc(O)cc2)C(=O)N[C@H](Cc2c[nH]c3ccccc23)C(=O)N[C@@H](CCCCN)C(=O)N[C@@H]([C@@H](C)O)C(=O)N1)C(=O)O [copper-64 labelled],"male Lewis rat, pancreas","0.74 MBq, 1 h",,tissue uptake,10.2 ± 2.7 %ID/g
CSCC[C@H](NC(=O)[C@H](CC(C)C)NC(=O)CNC(=O)[C@H](Cc1ccccc1)NC(=O)[C@H](Cc1ccccc1)NC(=O)[C@H](CCC(N)=O)NC(=O)[C@H](CCC(N)=O)NC(=O)[C@@H]1CCCN1C(=O)[C@H](CCCCNC(=O)CCC1=[N+]2C(=Cc3c(C)cc(C)n3[B-]2(F)F)C=C1)NC(=O)[C@@H]1CCCN1C(=O)[C@@H](N)CCCNC(=N)N)C(N)=O,PBS,"10 nM, pH 7.4",,excitation maximum,505 nm
CCCC[C@H](NC(=O)CCCCCCCNC(=O)c1ccc(NN)nc1)C(=O)N[C@H]1CC(=O)NCCCC[C@@H](C(N)=O)NC(=O)[C@H](Cc2c[nH]c3ccccc23)NC(=O)[C@H](CCCNC(=N)N)NC(=O)[C@@H](Cc2ccccc2)NC(=O)[C@H](Cc2c[nH]cn2)NC1=O [technetium-99m labelled],"C57 mouse, B16/F1 melanoma, muscle","intravenous, 0.5 h",,uptake,0.43 ± 0.14 %ID/g

# Repeated from above:
SMILES,system,conditions,how to read,measurement,value
C[C@@H](O)[C@H](NC(=O)[C@@H]1CSSC[C@H](NC(=O)[C@@H](Cc2ccccc2)NC(=O)CN2CCCN3CCN(CCCN(CP(=O)(O)O)CC3)CC2)C(=O)N[C@@H](Cc2ccc(O)cc2)C(=O)N[C@H](Cc2c[nH]c3ccccc23)C(=O)N[C@@H](CCCCN)C(=O)N[C@@H]([C@@H](C)O)C(=O)N1)C(=O)O [copper-64 labelled],"male Lewis rat, pancreas","0.74 MBq, 1 h",,tissue uptake,10.2 ± 2.7 %ID/g
